Results gathered from unrelated publications.
Each numbered part is a random draw from the data of one study; scales do not carry over between parts.
UniProt P41595, sequence (whole entry, looked up): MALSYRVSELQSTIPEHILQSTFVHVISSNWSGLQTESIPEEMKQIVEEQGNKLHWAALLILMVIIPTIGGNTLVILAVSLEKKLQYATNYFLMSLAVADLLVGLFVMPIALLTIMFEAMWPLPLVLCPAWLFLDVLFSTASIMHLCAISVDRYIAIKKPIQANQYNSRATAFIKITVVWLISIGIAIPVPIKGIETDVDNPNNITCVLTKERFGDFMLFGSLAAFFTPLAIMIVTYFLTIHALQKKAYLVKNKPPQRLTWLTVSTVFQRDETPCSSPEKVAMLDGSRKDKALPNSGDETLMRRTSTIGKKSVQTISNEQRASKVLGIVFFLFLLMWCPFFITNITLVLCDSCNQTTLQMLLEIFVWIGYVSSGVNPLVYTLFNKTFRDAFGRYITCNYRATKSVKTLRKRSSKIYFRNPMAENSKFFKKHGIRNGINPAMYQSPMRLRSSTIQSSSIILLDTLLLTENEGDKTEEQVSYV

Block 1
Target: Centromere-binding protein 1, full length, His-tagged (CBF1, Saccharomyces cerevisiae, UniProt P17106, residues 1-351)
UniProt P17106, sequence (whole entry, looked up): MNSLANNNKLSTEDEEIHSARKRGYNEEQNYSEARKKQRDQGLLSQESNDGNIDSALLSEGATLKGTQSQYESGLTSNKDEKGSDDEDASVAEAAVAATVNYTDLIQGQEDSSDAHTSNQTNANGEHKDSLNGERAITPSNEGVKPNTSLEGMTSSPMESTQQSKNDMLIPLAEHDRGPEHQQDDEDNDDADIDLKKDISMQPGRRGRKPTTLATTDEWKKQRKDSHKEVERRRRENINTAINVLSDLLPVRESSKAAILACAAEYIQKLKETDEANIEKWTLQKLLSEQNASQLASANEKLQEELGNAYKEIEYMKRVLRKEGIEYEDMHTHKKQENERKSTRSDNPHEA
Technique: competition protein-binding microarray
Form: double-stranded DNA, one strand shown
Sample: in vitro
Concentration: 2 µM
Setting: whole 60-bp probe, lowest competitor level
Together with: Pho4 competitor, 0.05 µM
Reading: higher = stronger binding
Constant ends, left off below: … GTCTTGATTCGCTTGACGCTGCTG
| Sequence | fluorescence intensity |
| --- | --- |
| AAAGCGGTAATTTGTCTTGTGGGTGCAGATATCTAT | 75.5 a.u. |
| CATACCCAACCTTGTCAAGTGGGTGAAGATATTTGT | 73.1 a.u. |
| CCTTCCACATTGCGTACCGTGACGGTGGCGGAATTT | 89 a.u. |
| AAGGTAATGGTATGGCTCGTGACGGATTTACCCAAC | 277 a.u. |
| GTCTTGTCTCATTGCGTCGTGGGTGTCCCCACTTCA | 71.1 a.u. |
| GTCAGAAAGCCGGGTAAGGTGTGCCAGCGAGAGTAA | 62.2 a.u. |
| AGCGTTGAAGACAAATTCGTGACTCGTTGGTCCTAA | 88.8 a.u. |
| CATGCCGAGAAGTTACTCGTGCAAATCACTACGATA | 82.5 a.u. |

Block 2
Target: Ephrin type-B receptor 1 (EPHB1, Homo sapiens, UniProt P54762)
UniProt P54762, sequence (whole entry, looked up): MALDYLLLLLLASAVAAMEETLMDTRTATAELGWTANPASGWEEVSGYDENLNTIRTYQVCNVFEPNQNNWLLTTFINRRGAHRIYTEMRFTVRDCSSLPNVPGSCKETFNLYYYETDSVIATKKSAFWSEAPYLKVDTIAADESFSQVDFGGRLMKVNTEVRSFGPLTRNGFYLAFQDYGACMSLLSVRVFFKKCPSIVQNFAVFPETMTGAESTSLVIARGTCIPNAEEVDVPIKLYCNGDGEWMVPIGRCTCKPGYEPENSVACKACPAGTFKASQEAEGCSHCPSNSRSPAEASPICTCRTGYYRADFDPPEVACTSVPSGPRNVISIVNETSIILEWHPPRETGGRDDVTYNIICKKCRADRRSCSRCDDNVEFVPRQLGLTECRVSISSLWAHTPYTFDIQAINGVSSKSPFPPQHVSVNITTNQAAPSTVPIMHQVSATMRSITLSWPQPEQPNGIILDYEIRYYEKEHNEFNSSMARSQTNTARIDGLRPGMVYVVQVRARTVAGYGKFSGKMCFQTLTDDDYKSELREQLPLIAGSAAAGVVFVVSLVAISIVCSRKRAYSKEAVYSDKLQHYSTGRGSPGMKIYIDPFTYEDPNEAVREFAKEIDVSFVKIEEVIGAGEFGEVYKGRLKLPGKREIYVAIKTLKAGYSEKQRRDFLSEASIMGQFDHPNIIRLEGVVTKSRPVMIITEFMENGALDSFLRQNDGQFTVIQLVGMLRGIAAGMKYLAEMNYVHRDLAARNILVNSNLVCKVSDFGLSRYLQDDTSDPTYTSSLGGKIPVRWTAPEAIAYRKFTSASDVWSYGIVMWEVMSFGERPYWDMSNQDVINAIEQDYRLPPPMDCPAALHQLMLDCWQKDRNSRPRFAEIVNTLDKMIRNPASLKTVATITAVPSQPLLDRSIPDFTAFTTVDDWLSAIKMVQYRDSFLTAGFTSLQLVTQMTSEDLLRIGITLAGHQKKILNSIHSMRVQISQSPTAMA
Observed: enzyme activity
Action: inhibitor
Concentration: 0.5 µM
Reference: control
| Structure (SMILES) | remaining activity [%] |
| --- | --- |
| Cn1c2ccccc2c2c3c(c4c5ccccc5n(CCC#N)c4c21)CNC3=O | 95 |
| O=S(=O)(c1cccc2cnccc12)N1CCCNCC1 | 106 |
| CO[C@H]1C[C@@H]2CC[C@@H](C)[C@@](O)(O2)C(=O)C(=O)N2CCCC[C@H]2C(=O)O[C@H]([C@H](C)C[C@@H]2CC[C@@H](O)[C@H](OC)C2)CC(=O)[C@H](C)/C=C(\C)[C@@H](O)[C@@H](OC)C(=O)[C@H](C)C[C@H](C)/C=C/C=C/C=C/1C | 110 |
| COc1cc2ncnc(Nc3ccc(Oc4ccccc4)cc3)c2cc1OC | 108 |
| OCC(O)CCON=C1C(c2c(O)[nH]c3ccccc23)=Nc2ccccc21 (stereo not drawn) | 65.9 |
| Nc1[nH]nc2nc3ccccc3nc12 | 92.3 |
| Cn1sc(=O)n(Cc2ccccc2)c1=O | 100 |
| CC(C)[C@H](CO)Nc1nc(Nc2cc(N)cc(Cl)c2)c2ncn(C(C)C)c2n1 | 59.2 |
| CCOC(=O)c1c(C)[nH]c(/C=C2\C(=O)Nc3ccccc32)c1C | 97.5 |
| COc1ccc(OC)c2c(=S)c3ccccc3[nH]c12 | 87.1 |
| COc1ccc(CNC(=O)Nc2ncc([N+](=O)[O-])s2)cc1 | 102 |

Block 3
Target: RING finger protein unkempt homolog, zinc fingers 1-6, GST-SBP tag (UNK, Homo sapiens, UniProt Q9C0B0, residues 30-357)
Technique: RNA Bind-n-Seq
Form: RNA
Sample: in vitro
Concentration: not given
Setting: RNA with constant flanks, ends assumed
Reference: input RNA pool
Reading: higher = stronger binding
Constant ends, left off below: GGGAGUUCUACAGUCCGACGAUC … CAACAGAGGAUUGAGCAUCA
Target sequence (chain): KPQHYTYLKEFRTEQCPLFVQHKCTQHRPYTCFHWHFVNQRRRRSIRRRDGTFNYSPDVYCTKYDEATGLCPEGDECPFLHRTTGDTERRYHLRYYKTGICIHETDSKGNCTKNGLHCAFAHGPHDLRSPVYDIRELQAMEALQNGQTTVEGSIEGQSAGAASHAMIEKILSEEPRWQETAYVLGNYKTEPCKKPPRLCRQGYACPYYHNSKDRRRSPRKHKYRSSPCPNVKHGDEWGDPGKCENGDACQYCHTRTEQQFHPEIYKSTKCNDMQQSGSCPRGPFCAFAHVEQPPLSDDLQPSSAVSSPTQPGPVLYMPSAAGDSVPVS
| Sequence | bound/input enrichment |
| --- | --- |
| GCUGUCAUGUAUGUAUGCAAGGUGGCAGCUGAGUGGAGAAACACCUUCCACAAGGAUGUUGCCGUUGAUCUGGUGUGUUAUCGACGAAAUGGCCACAAUGAGAUGGACGAACCUAUGUUU | 0.0962 ratio |
| AUCCACAGUCUGAUGGGCAACUUUGAAAAUGCUGUGGACUACUUCCACACAGCCCUUGGUCUCCGGCGAGAUGAUACAUUUUCUGUUACAAUGCUUGGUCAUUGCAUCGAAAUGUACAUU | 0.123 ratio |
| GUGGCUGCUUUCUUUGGUACUCUCUCUCCACUCCCAACGUAGCUGUGACGUGUUGCCGUUUUCCGCUGUUUGUAAAAUGUUAAAAAAAAAAAAAGUUAAAAGGAAGUUAAACUAACCACA | 1.56 ratio |
| AAGCUCCCGAAGGCAUUAUACCCGGUCACGGUCUCGCUCCCGCUCCCAUAGACGAUCACGCCGCAGGUCUUACAGUCGAGAUUAUCGUAGACGGCACAGCCACAGCCAUUCUCCCAUGUC | 1.39 ratio |
| AAUUUAGAGGAGUAUCUAAGACUGGUUAUAUUCUGGGCACUAAAUGAAGGCGUUUCCCGGCAAUUUGAUUCGUUCAGAGAUGGAUUUGAAUCAGUCUUCCCACUCAGUCAUCUUCAGUAC | 0.155 ratio |
| UGGGAUGAAAAUCUCAAAGAUGAUUCUCUUCCUGAAAAUCCAAUAGACUUUUCUUACAGAGCCGCUGCUUGUCUUCCUAUUGAUGAUGUAUUGAGAAUUCAGCUCCUUAAAAUCGGCAGU | 0.2 ratio |
| CUUGAAAGUUCGGGGGCAUUUUGUUGUGUUCUGUAGGAGAGAGGGGGAGGACCCUGUUCGGGCCGUUUGGCCGGACUGGUACUGGCCGUUGGAAAACCCGAAGUACAUUUCCGUGUGGAA | 0.241 ratio |
| AGAGAAAUCCUGUCAGAUGACAAGCAUGACUGGGAGCAGAGAGUAAAUGCUCUAAAAAAGAUCCGAUCGUUACUCUUGGCUGGGGCUGCUGAGUACGAUAACUUCUUUCAACACUUGCGU | 0.094 ratio |

Further values, each from its own experiment
| Structure (SMILES) | tested on | assay | setting | how to read | quantity | result |
| --- | --- | --- | --- | --- | --- | --- |
| O=c1nc(-c2ccccn2)sc2ccccc12 | sample D normal colon organoid | CellTiter-Glo | 1 µM, mean of replicates | reference: DMSO | viability | 116% |
| Cc1nc(N2CC[C@@H](O)C2)ncc1-c1cc(C(F)(F)F)cc2[nH]ncc12 | 5-hydroxytryptamine receptor 2B (HTR2B, Homo sapiens, UniProt P41595) | binding, radioligand binding | 10 µM | – | inhibition | -1.84% |
| CC(=O)N1CCC(c2ccc(C(=O)NC(=N)N)cc2C(F)(F)F)CC1 | sample D normal colon organoid | CellTiter-Glo | 1 µM, mean of replicates | reference: DMSO | viability | 109% |

Excerpt of the above (block 2):
| Structure (SMILES) | remaining activity [%] |
| --- | --- |
| CC(C)[C@H](CO)Nc1nc(Nc2cc(N)cc(Cl)c2)c2ncn(C(C)C)c2n1 | 59.2 |
| CCOC(=O)c1c(C)[nH]c(/C=C2\C(=O)Nc3ccccc32)c1C | 97.5 |
| COc1ccc(OC)c2c(=S)c3ccccc3[nH]c12 | 87.1 |
| COc1ccc(CNC(=O)Nc2ncc([N+](=O)[O-])s2)cc1 | 102 |
